Results of several laboratories.
Parts stem from different laboratories: compare values within a part only. ± gives the spread as reported.

Sample 1
Structure (SMILES): COC(=O)c1cnn(-c2ccc(F)cc2F)c1C=NNC(=S)NC(C)(C)C
Target: G-protein coupled receptor 35 (GPR35, Homo sapiens, UniProt Q9HC97)
Sequence of UniProt Q9HC97 (whole entry, looked up): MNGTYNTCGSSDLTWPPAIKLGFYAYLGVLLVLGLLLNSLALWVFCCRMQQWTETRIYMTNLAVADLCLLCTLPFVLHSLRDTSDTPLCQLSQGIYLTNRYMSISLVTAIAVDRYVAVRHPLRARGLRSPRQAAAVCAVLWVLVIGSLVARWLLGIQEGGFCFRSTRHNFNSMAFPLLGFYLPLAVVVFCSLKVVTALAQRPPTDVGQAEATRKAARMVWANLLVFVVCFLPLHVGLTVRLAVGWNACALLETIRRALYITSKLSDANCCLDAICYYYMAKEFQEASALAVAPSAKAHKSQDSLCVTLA
Observed: dynamic mass redistribution
Mode: antagonist
Cells: HT-29
Measurement: IC50
added: 0.5 mM kynurenic acid: 4.41 ± 0.47 µM
added: 2 µM cromolyn disodium: 13.5 ± 1.6 µM
added: 3-nitro-L-tyrosine 0.5 mM: 6.74 ± 0.39 µM
added: T3 50 µM: 3.25 ± 0.21 µM
added: L-DOPA 1 mM: 7.46 ± 0.54 µM

Further values, each from its own experiment
GRM2: Metabotropic glutamate receptor 2 (GRM2, Homo sapiens, UniProt Q14416)
Sequence of UniProt Q14416 (whole entry, looked up): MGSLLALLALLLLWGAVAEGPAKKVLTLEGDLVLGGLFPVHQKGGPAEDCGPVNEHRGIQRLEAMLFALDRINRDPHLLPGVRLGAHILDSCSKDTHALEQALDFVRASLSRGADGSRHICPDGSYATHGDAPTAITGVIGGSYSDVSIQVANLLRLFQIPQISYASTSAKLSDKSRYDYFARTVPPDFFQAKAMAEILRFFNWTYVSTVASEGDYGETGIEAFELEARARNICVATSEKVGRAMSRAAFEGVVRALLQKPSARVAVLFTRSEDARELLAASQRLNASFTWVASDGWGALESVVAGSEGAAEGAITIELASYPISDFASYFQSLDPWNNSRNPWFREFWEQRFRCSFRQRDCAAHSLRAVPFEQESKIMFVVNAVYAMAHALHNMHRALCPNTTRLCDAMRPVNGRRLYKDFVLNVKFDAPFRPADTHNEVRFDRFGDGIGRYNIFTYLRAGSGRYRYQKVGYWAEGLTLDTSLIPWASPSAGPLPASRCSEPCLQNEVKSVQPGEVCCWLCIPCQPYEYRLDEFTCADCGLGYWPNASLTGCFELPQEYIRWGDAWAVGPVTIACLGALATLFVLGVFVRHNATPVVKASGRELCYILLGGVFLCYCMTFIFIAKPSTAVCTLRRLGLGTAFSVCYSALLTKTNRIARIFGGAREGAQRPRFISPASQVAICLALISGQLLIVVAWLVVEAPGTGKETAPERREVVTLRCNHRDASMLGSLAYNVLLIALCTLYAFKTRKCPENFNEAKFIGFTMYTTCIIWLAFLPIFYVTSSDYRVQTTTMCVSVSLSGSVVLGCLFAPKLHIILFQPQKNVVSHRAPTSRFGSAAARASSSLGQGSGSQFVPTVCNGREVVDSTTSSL
CCCCn1ccn2c(-c3ccc(OCC4CC4)c(Cl)c3)nc(C)c2c1=O  EC50 (GRM2; GTPγS binding, positive allosteric modulator; added: EC20 glutamate): 0.327 µM
CCCC(CCC)C(=O)O  Racine score (mouse, pilocarpine-induced seizures; oral, 300 mg/kg, 60 min after pilocarpine; direction not given): 2.8 ± 0.63
CCCCn1ccn2c(-c3ccc(NCc4ccc(OC)nc4)cc3)c(C)nc2c1=O  concentration (male Sprague-Dawley rat, plasma; subcutaneous, 10 mg/kg, 90 min, single dose): 1920 ng/mL
CNC(=S)NN=Cc1ccc(OC)cc1  IC50 (Leishmania major; parasite growth; J774.A1; 72 h, intracellular, amastigote): 26.7 µM
CCCCn1ccn2c(-c3ccc(N4CCNCC4)c(Cl)c3)c(C)nc2c1=O  EC50 (GRM2; GTPγS binding, positive allosteric modulator; added: EC20 glutamate): 0.174 µM
CNC(=S)NN=Cc1ccc(Br)cc1  apoptotic cells (Leishmania major; annexin V/PI flow cytometry; promastigotes; IC50): 37.7%

A few entries again (sample 1):
added: 0.5 mM kynurenic acid: 4.41 ± 0.47 µM
added: L-DOPA 1 mM: 7.46 ± 0.54 µM
